Assay results of several laboratories.
Numbered parts are unrelated; each lists some results of a single study. Several values in a cell are separate wells, animals, samples, runs or records. Numbers after ± are the reported error.
UniProt P35590, sequence (whole entry, looked up): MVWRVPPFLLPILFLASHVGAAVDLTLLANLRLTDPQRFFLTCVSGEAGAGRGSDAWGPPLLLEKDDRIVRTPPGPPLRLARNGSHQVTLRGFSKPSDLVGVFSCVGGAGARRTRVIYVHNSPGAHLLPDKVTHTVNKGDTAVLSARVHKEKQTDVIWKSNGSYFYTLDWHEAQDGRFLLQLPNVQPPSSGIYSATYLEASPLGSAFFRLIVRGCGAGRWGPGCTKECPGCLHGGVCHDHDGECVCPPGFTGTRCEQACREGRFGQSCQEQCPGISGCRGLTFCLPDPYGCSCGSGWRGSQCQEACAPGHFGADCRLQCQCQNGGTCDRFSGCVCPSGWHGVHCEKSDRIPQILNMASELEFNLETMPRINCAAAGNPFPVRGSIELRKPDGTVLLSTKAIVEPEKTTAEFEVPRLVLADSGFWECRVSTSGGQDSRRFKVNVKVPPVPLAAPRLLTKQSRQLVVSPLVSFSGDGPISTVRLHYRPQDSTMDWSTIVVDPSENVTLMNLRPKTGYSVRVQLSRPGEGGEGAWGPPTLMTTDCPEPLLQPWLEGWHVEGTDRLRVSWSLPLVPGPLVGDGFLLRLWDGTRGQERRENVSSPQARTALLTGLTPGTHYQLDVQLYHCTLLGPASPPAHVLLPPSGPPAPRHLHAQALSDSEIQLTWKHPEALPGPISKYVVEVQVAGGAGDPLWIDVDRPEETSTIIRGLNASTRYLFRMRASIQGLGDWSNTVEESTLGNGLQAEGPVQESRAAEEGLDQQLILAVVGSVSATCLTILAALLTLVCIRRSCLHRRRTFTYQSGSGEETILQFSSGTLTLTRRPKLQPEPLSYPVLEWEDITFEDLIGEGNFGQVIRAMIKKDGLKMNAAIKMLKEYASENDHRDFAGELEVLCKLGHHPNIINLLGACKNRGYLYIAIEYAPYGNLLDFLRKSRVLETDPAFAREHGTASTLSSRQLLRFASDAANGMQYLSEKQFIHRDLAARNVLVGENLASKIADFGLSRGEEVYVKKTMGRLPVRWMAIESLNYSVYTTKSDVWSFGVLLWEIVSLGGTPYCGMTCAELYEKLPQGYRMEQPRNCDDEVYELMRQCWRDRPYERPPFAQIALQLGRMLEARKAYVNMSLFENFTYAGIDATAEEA
UniProt P07947, sequence (whole entry, looked up): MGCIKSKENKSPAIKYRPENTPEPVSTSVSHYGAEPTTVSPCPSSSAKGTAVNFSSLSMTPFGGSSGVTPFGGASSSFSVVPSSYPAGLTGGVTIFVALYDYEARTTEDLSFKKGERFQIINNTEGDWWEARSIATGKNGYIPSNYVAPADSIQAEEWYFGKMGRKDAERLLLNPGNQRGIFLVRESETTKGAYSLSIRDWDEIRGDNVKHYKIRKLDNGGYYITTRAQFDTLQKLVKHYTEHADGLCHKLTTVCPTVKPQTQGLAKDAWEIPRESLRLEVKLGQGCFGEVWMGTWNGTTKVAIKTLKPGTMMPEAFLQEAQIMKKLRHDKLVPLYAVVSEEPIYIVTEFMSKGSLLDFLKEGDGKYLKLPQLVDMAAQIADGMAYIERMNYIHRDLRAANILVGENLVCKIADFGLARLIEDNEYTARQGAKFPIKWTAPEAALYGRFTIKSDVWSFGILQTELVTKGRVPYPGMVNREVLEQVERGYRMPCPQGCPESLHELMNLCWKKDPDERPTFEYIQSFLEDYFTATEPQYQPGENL
UniProt Q8IW41, sequence (whole entry, looked up): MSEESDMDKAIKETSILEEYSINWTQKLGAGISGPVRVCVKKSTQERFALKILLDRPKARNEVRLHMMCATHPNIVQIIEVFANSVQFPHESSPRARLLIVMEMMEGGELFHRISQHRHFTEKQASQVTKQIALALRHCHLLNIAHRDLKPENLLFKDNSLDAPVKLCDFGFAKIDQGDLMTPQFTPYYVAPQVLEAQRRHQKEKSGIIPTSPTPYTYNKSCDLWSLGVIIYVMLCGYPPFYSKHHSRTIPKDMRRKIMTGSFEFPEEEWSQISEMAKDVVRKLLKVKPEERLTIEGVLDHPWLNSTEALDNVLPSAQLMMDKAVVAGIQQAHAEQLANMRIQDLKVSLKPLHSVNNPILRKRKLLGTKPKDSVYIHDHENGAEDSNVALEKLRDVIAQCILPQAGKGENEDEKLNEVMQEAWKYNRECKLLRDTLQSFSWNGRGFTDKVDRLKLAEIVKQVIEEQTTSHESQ
UniProt O60285, sequence (whole entry, looked up): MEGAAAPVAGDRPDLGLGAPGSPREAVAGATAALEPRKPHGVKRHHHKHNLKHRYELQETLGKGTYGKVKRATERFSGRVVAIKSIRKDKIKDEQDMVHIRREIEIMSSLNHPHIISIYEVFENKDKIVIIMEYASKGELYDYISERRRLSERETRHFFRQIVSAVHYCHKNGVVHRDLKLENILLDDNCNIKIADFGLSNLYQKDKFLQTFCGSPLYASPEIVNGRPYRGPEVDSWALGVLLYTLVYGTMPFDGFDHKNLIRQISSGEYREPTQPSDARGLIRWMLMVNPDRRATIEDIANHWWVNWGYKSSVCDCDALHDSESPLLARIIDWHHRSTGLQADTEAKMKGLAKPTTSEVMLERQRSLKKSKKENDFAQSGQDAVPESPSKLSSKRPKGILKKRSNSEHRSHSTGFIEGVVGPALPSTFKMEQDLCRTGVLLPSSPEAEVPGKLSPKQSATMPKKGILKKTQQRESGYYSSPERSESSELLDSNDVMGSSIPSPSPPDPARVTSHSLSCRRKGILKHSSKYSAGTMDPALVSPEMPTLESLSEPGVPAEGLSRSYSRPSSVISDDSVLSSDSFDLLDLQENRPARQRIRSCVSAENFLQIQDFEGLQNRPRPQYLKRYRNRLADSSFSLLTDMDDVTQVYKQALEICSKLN

Study 1
Target: Sodium-dependent neutral amino acid transporter B(0)AT1 (SLC6A19, Homo sapiens, UniProt Q695T7)
UniProt Q695T7, sequence (whole entry, looked up): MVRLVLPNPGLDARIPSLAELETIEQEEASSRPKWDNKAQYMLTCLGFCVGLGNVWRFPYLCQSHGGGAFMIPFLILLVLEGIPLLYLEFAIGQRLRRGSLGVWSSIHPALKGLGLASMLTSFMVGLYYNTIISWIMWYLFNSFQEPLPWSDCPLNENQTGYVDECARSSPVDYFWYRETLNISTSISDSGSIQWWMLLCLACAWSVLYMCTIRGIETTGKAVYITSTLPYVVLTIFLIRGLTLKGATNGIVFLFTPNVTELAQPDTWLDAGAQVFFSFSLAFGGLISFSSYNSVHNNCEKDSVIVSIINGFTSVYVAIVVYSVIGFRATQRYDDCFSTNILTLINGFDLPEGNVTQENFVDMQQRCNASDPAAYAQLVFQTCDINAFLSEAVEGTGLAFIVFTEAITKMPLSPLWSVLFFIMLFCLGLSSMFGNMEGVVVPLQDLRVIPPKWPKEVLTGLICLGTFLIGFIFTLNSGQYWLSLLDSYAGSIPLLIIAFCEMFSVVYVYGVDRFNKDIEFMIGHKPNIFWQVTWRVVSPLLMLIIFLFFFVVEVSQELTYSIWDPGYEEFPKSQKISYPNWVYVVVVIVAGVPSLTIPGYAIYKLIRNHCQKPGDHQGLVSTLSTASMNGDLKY
Action: inhibitor
Technique: FLIPR membrane potential
Cell line: CHO-BC cells
Concentration: 30 µM
Setting: 30 µM cinromide as 0%
Together with: 1.5 mM L-leucine
Baseline: uninhibited cells
Quantity: remaining activity
CC(C)NC(=O)COc1cccc2ccccc12: 10 ± 2%
CCC(C)NC(=O)COc1cc(C)c(Cl)c(C)c1 (racemic): 108 ± 12%
Cc1cc(OCC(=O)NO)cc(C)c1Cl: 90 ± 10%
Cc1cc(NCC(=O)NC(C)C)cc(C)c1Br: -2 ± 2%
CCCCCCNC(=O)COc1cc(C)c(Cl)c(C)c1: 110 ± 8%
CCCCCCCCNC(=O)COc1cc(C)c(Cl)c(C)c1: 105 ± 11%
CC(C)NC(=O)COc1ccc(Cl)cc1: 34 ± 4%
Cc1cc(OCC(=O)NCc2ccccc2)cc(C)c1Cl: 102 ± 10%
Cc1cc(OCC(=O)NCCO)cc(C)c1Cl: 109 ± 10%
Cc1cc(OCC(=O)NCCc2ccccc2)cc(C)c1Cl: 95 ± 6%
Cc1cc(OCC(=O)NC(C)C)ccc1Br: -3 ± 1%
CC(C)NC(=O)COC(c1ccccc1)c1ccccc1: 82 ± 11%
COc1ccc(SCC(=O)NC(C)C)cc1: 80 ± 22%

Study 2
Organism: Arabidopsis thaliana
Strain: Col-0
Concentration: 3.125 µg/mL
Setting: seed germination, single repetition
Quantity: hypocotyl length
O=C(O)C1(O)Oc2cc(Cl)ccc2N(Cc2ccccc2)C1=O (stereo not drawn): 2.07 cm and 2.12 cm and 2.08 cm
O=C(O)C1Oc2cc(F)ccc2N(Cc2ccccc2)C1=O (stereo not drawn): 2.31 cm and 2.29 cm and 2.34 cm and 2.33 cm and 2.3 cm
CCN1C(=O)C(O)(C(=O)O)Oc2cc(F)ccc21 (stereo not drawn): 2.12 cm and 2.22 cm and 2.33 cm and 2.24 cm
CN1C(=O)C(O)(C(=O)O)Oc2cc(F)ccc21 (stereo not drawn): 2.22 cm and 1.96 cm and 2.21 cm and 2.3 cm and 2.25 cm
Cc1ccc2c(c1)OC(O)(C(=O)O)C(=O)N2Cc1ccccc1 (stereo not drawn): 2.09 cm and 2.08 cm and 2.1 cm and 2.05 cm

Study 3
Target: E3 ubiquitin-protein ligase NEDD4 (Homo sapiens, UniProt P46934)
Read-out: enzyme activity
Action: inhibitor
Technique: TR-FRET
Concentration: 100 µM
Quantity: inhibition
Residues (P46934 938-1319, limits assumed): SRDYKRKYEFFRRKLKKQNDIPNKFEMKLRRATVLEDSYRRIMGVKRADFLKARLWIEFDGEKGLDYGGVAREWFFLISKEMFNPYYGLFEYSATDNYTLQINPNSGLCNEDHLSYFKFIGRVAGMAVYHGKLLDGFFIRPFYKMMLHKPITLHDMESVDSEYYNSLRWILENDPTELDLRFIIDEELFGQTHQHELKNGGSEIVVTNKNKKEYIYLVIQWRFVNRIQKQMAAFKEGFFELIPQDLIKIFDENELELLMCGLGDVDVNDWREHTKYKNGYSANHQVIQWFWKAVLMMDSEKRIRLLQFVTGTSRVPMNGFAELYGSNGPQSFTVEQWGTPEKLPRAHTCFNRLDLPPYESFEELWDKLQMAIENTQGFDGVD
CCOC(=O)/C=C/CNCCCN1c2ccccc2CCc2ccc(Cl)cc21: 85.8%
Cl.NC(=O)/C=C/CNCCCN1c2ccccc2CCc2ccc(Cl)cc21: 51.3%
CN(C)C(=O)/C=C/CNCCCN1c2ccccc2CCc2ccc(Cl)cc21.Cl: 30.7%
CN(C)C/C=C/C(=O)NCCCN1c2ccccc2CCc2ccc(Cl)cc21: 42.3%
COC(=O)/C=C/C(=O)NCCCN1c2ccccc2CCc2ccc(Cl)cc21: < 10%

Study 4
SMILES: CCN1/C(=C/C=C2\CCCC(/C=C/C3=[N+](CC)c4ccccc4C3(C)C)=C2NCCCCCCCCN2CCC(Nc3nc4ccccc4n3Cc3ccc(F)cc3)CC2)C(C)(C)c2ccccc21
Cell line: U-87 MG
Concentration: concentration not given
Baseline: DMSO
Quantity: log2 fold change
measured: EHBP1L1 mRNA: -1.1
measured: DNPH1 mRNA: -0.946
measured: SP5 mRNA: -2.06
measured: CIT mRNA: -1.84
measured: USP18 mRNA: -2.74
measured: FAM111A mRNA: -0.857
measured: B4GAT1 mRNA: -1.09
measured: GBP1 mRNA: -2.92
measured: ARHGAP44 mRNA: -2.68
measured: HSPA6 mRNA: 6.74
measured: TSPAN13 mRNA: 1.73
measured: PABIR1 mRNA: 0.853

Study 5
Structure (SMILES): Cc1ccc(O)c(C)c1-c1cnc2[nH]c(-c3cnc(N)nc3)cc2c1C#N
Technique: KINOMEscan
Concentration: 1000 nM
Baseline: control
Quantity: remaining binding
CSF1R: 28%
CASK: 8.1%
RAF1: 6.5%

Study 6
SMILES: COc1cc(-c2nc3ccc(C(=O)NCCCN4CCN(c5cccc(C)c5C)CC4)cc3n2C2CCC2)cc(OC)c1OC
Read-out: binding
Technique: competition with immobilised ligand
Concentration: 1 µM
Quantity: remaining binding
DYRK2 (Homo sapiens, UniProt Q92630): 76%
BRSK2 (Homo sapiens, UniProt Q8IWQ3): 87%
MAP2K2 (Homo sapiens, UniProt P36507): 89%
Tyrosine-protein kinase ABL1, non-phosphorylated (ABL1, Homo sapiens, UniProt P00519): 83%
EPHA4 (Homo sapiens, UniProt P54764): 95%
PRKCH (Homo sapiens, UniProt P24723): 100%
SRPK3 (Homo sapiens, UniProt Q9UPE1): 100%
CAMK2G (Homo sapiens, UniProt Q13555): 99%
YES1 (Homo sapiens, UniProt P07947): 67%
TIE1 (Homo sapiens, UniProt P35590): 91%
EPHA7 (Homo sapiens, UniProt Q15375): 100%
CAMK1G (Homo sapiens, UniProt Q96NX5): 86%
NUAK2 (Homo sapiens, UniProt Q9H093): 89%
EPHB3 (Homo sapiens, UniProt P54753): 93%
NUAK1 (Homo sapiens, UniProt O60285): 100%
MAPKAPK5 (Homo sapiens, UniProt Q8IW41): 75%
Ribosomal protein S6 kinase alpha-1, N-terminal kinase domain (RPS6KA1, Homo sapiens, UniProt Q15418): 96%
CAMK4 (Homo sapiens, UniProt Q16566): 78%

Study 7
SMILES: Cc1ncsc1-c1ccc(C(CO)NC(=O)C2CC(O)CN2C(=O)C(C(C)C)n2cc(-c3ccc(COc4c(-c5c(C)c(F)cc6[nH]ncc56)c(C5CC5)cc5c(N6CC7CC6CN7)nc(OC6CCOCC6)nc45)cc3)nn2)cc1 (stereo not drawn)
Technique: qRT-PCR
Host: mouse, PK-59 xenograft
Sample: tumour
Setting: unit not given
Quantity: mRNA level
measured: DUSP6; 30 mg/kg, 24 h; baseline: vehicle: 0.035 and 0.04 and 0.0404 and 0.031 and 0.0354 and 0.0308
measured: DUSP4; 10 mg/kg, 2 h; baseline: vehicle: 1.18 and 1.28 and 0.953
measured: MYC; intravenous, 30 mg/kg, 144 h; baseline: vehicle, same time point: 0.0527 and 0.0684
measured: SPRY4; intravenous, 30 mg/kg, 48 h; baseline: vehicle, same time point: 0.000297 and 0.000532
measured: DUSP6; intravenous, 10 mg/kg, 2 h; baseline: vehicle, same time point: 0.178 and 0.158 and 0.129
measured: MYC; 30 mg/kg, 144 h; baseline: vehicle: 0.415 and 0.539
measured: SPRY4; 10 mg/kg, 48 h; baseline: vehicle: 0.188 and 0.106 and 0.14
measured: FOSL1; intravenous, 30 mg/kg, 144 h; baseline: vehicle, same time point: 0.00864 and 0.011
measured: ETV4; 10 mg/kg, 144 h; baseline: vehicle: 0.329 and 0.26 and 0.341

Study 8
Structure (SMILES): C[C@@H]1CN(c2ccc(-c3cc(C(=O)NCCOCCOCCOCCOCCNC(=O)/C=C/c4[nH]cc(C(=O)N[C@@H](CC(N)=O)c5ccc(F)c(Cl)c5)c4-c4ccc(Cl)cc4F)ccc3F)cc2NC(=O)c2c[nH]c(=O)cc2C(F)(F)F)C[C@H](C)N1C
Read-out: thermal unfolding
Technique: differential scanning fluorimetry
Concentration: 5.5 µM
Direction: higher = more unfolded
Quantity: SYPRO Orange fluorescence
WDR5: WD repeat-containing protein 5 (WDR5, Homo sapiens, UniProt P61964)
DCAF1: DDB1- and CUL4-associated factor 1 (DCAF1, Homo sapiens, UniProt Q9Y4B6)
UniProt Q9Y4B6, sequence (whole entry, looked up): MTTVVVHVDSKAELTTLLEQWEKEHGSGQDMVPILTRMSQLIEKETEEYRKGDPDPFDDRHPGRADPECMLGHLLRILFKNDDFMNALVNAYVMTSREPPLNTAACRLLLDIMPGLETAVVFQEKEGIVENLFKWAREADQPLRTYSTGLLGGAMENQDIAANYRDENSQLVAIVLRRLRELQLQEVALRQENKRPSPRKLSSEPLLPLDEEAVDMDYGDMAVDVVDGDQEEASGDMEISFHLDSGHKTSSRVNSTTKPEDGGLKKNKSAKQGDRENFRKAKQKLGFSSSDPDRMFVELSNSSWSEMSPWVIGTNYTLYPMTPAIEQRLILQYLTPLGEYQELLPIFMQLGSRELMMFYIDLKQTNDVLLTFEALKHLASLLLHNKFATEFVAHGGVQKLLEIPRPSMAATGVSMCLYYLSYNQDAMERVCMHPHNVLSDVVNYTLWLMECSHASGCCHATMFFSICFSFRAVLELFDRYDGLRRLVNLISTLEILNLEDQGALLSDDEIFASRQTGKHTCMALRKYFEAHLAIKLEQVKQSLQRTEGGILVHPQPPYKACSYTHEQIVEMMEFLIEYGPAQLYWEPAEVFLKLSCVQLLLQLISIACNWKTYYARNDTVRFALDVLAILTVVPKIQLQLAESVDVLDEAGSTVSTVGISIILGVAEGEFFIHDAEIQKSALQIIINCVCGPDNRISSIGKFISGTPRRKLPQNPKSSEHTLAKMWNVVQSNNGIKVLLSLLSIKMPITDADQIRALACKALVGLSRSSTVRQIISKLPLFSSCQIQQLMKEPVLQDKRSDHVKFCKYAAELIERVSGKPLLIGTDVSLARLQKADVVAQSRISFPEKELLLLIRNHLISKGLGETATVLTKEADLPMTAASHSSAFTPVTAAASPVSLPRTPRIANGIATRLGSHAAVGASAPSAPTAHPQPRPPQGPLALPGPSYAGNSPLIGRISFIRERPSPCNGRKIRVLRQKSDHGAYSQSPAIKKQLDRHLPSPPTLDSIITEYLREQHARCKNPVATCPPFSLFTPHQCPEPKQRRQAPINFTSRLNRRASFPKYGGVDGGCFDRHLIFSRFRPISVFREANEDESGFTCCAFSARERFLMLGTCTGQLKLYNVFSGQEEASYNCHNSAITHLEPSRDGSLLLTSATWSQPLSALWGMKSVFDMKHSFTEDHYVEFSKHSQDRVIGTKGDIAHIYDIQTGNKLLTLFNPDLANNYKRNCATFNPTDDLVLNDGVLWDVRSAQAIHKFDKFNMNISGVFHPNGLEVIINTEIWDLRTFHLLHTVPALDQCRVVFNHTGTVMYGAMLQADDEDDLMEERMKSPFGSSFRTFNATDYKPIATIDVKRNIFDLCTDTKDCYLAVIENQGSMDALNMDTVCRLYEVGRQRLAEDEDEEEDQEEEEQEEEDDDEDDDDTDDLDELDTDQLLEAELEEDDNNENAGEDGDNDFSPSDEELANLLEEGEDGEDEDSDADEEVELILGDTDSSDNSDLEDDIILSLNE
WDR5; 63.41 °C: 14100 a.u.
WDR5; 47.6 °C: 15800 a.u.
DCAF1; 48.4 °C: 14500 a.u.
DCAF1; 52.2 °C: 17100 a.u.
DCAF1; 86.61 °C: 38300 a.u.
WDR5; 73.21 °C: 21600 a.u.
DCAF1; 54.21 °C: 19900 a.u.
WDR5; 71.41 °C: 18400 a.u.
WDR5; 26 °C: 13000 a.u.
DCAF1; 53.61 °C: 18800 a.u.
DCAF1; 46.2 °C: 13500 a.u.

Mixed results
Cc1nc(C)c(C=[N+]([O-])C(C)(C)C)nc1C
Nrf2 protein level (Western blot; MPTP mouse model, substantia nigra nuclei; 10 mg/kg, unit not given; baseline: β-actin): 88 and 115 and 101

CC(C)(C)n1nc(-c2ccc(Cl)cc2)c2c(N)ncnc21
inhibition (RIPK3 (Homo sapiens, UniProt Q9Y572); kinase activity, inhibitor, ADP-Glo kinase; 1000 nM, 1 h): 94.8%

Repeated from above (study 1):
CCC(C)NC(=O)COc1cc(C)c(Cl)c(C)c1 (racemic): 108 ± 12%
CC(C)NC(=O)COc1cccc2ccccc12: 10 ± 2%
Cc1cc(OCC(=O)NO)cc(C)c1Cl: 90 ± 10%
CC(C)NC(=O)COC(c1ccccc1)c1ccccc1: 82 ± 11%
Cc1cc(OCC(=O)NCCc2ccccc2)cc(C)c1Cl: 95 ± 6%
CCCCCCNC(=O)COc1cc(C)c(Cl)c(C)c1: 110 ± 8%
CC(C)NC(=O)COc1ccc(Cl)cc1: 34 ± 4%
COc1ccc(SCC(=O)NC(C)C)cc1: 80 ± 22%
Cc1cc(OCC(=O)NC(C)C)ccc1Br: -3 ± 1%
CCCCCCCCNC(=O)COc1cc(C)c(Cl)c(C)c1: 105 ± 11%
